Results of several laboratories.
Each numbered part is a random draw from the data of one study; scales do not carry over between parts. Substitutions count along the parent as printed.

Block 1
Target: Fragile X messenger ribonucleoprotein 1, C-terminal low-complexity region (Fmr1, Mus musculus, UniProt P35922)
Method: RNA Bind-n-Seq
Molecule type: RNA
Matrix: in vitro
Tested at: 200 nM
Notes: whole 134-nt RNA, ends assumed
Together with: 150 mM LiCl
Baseline: input library
Direction: higher = stronger binding
Measurement: log2 enrichment
Library: 7-deaza-guanosine replaces G
All sequences stand within: GGGAGUUCUACAGUCCGACGAUC … UGGAAUUCUCGGGUGUCAAGG
UUUUCUGUUUGAAACAGUUUUAUACUUUCUGAUAUAGUACUUGAAAUUCUUACCAGAAAAUUACUUUGGAGUUUUGAAGCCUUUAUUAAU: -0.0708
ACCAUGCAGGUGGGCAUCUUUGGGAAGUGGGGCAAGGGGGGGAUAGGGAGGGGGGUUACACUUUGGGAACAGGUGGUCCCAGGUCGUUUC: 1.42
UCCCUGAAUCACCGACUGGAGGAGAGUUACCUACAAGAGCCUUCAUCCAGGAGCAUCCACACUGCAAUGAUAUAGGAAUGAGGUCUGAAC: -0.534
UGGGAGGUGGAUUUUGUUUAUUUUUUUAGCUCAUUUCCAGGGGUGGGAAUUUGUUUUUAAUAUGUGUCAUGAAUAAAGUUGUUUUUGAAA: -0.582
UGGGAGGUGGAUUUUGUUUAUUUUUUUAGCUCAUUUCCAGGGGUGGGAAUUUUUUUUUAAUAUGUGUCAUGAAUAAAGUUGUCUUUGAAA: 0.0651
CCUCAAGUCCUGUGCUACACAUCGUAUGUACCGAAUCGGUUUGGUGGUUUGGAAAGUAUUAUGUUACGCCGUUCGGAUCUGCACUUCCAG: -1.23
CAAGUCCUGUGCUACACAUCGUAUGUACCGAAUCGGUUUGGUUUGGAAAAAAAGGAAAGUAUUAUGUUACGCCGUUCGGAUCUGCACUUC: -1.44
UCCUGUGCUACACAUCGUAUGUACCGAAUCAAAUUUUUUUAAAUUUAAAUUUUUUUAAAAAAGUAUUAUGUUACGCCGUUCGGAUCUGCA: -2.4

Block 2
Target: RNA binding protein fox-1 homolog 2, RRM domain, GST-SBP tag (RBFOX2, Homo sapiens, UniProt O43251-10, residues 100-194)
Method: RNA Bind-n-Seq
Molecule type: RNA
Matrix: in vitro
Tested at: 365 nM
Notes: natural RNA segment, single round, ends assumed
Baseline: no-protein control
Direction: higher = stronger binding
Measurement: RBNS enrichment (R)
All sequences stand within: GGGAGUUCUACAGUCCGACGAUC … UGGAAUUCUCGGGUGCCAA
Construct (chain): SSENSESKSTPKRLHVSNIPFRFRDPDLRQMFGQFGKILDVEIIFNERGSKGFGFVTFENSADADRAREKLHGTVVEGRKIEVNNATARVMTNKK
UCAAACCCUAUGUUUCUUUCAGAUGAAUCUUCCAAAGUGGAUUAUAUUAAGCAGGUAUUAGAUUUAGGAAAACCUUUCCAUUUCUUAAAGUAUUAUCAAGUGUCAAGAUC: 0.591
UCUGGCUCCGUGGCUGGAGGACCAACCCCUAUAGUGGGAAUGCAGAGCUUAACGUGUACUGCUUGUGUGUGUGCGUGAGUGUGUGUGUGUGUAUGAGUGUGUGUUCCGCC: 3.8
CAUAUCACACAUAUCUACACUAUUAUCUGAUAACACACUGGUAGUUUUUAAGACUAAGGCAGUUUAUAGAAUGAAGUAUAUCAAUAUUCUUUUGGUUUCCCAAAGCAAUA: 0.522
AUACAAAAAAACAUUGAUACUAUAAAAUGGUAAAAAGCGUCUUCUUUCUAAACAGCCCCAGUGUUGAAGUCUAUACUUAAUUUUGUUCUGUUCUGUUUUGUUUUCCUGUU: 0.462
AUAAUGUAUGAGAACUAGUUUCACAUCCUUUGAAACUAAUCUCUUUCAUUGGGGAGGAUACAACUUUUGACUUUACACAGGUGGACUUUGAAUCCAUUUUUAUAGAAUUU: 0.343
CUGUCUAACGAAUAGCACAUAACUCAUAUUGUGAAUCCUAUGGGUCUUGAGGCCUGUAGAACCAAUCUUGUAAACCAAGAUGCCUUGUUCUUGGAAGUUACAAAAGAAGC: 0.927
UGUUUUAACUGCCUUUCUGUUGAACUGUGGGGCUCUGAUUUGUGUCUAGAUUAUUGUAUAUUCUCACUGGUAUGCUGUUCCCUGGGGGGUGUUCUGUGUCCGACGCUGAG: 0.963
UUUGGGGAAAACAUUGCUUUUGGUCCCCCUCCCCAAUAUGCACACCUGCCUUUGCCACUACAUAGGCUGCCUCUGGGCUGUUGGAAGCUCUUCAGUGAGCCUAAGUCUUG: 0.531

Block 3
Target: TAR DNA-binding protein 43, full length, His tag (TARDBP, Homo sapiens, UniProt Q13148, residues 1-414)
Method: RNA Bind-n-Seq
Molecule type: RNA
Matrix: in vitro
Tested at: 20 nM
Notes: 6-mer, flanks averaged, single round
Together with: 150 mM LiCl
Baseline: input library
Direction: higher = stronger binding
Measurement: 6-mer enrichment (R)
CCGGCC: 0.957
UCCCAC: 0.925
ACUGGU: 0.946
GGGUUC: 0.981
UGGAGU: 1.16
UAGCGU: 1.02
GACGAG: 0.962
UAUUAG: 1
CCAACA: 0.854
CGCCUA: 0.883
GCCUAA: 0.871
AGGCUC: 0.868
AGGCCU: 0.925
AGCUGG: 0.965
CGUUGG: 1.01
CCGACA: 0.819
CACAGU: 0.884
UUCAGC: 0.881

Block 4
Target: CCND1, cyclin fold, Cln2 fusion (human)
Method: yeast growth competition, sequencing
Matrix: yeast
Notes: strong parent motif
Baseline: not given
Direction: higher = stronger binding
Measurement: normalised enrichment score
Starting sequence: SCAPER docking peptide (human); SNARRSLNFGGST
R4I: 1.75
R4D: 0.351
T13E: 1.46
G11F: 0.652
N8P: 0.256
L7M: 0.454
L7Q: 0.355
R5P: 0.786
F9C: -0.171
L7F: 0.0659
L7T: 0.338
S6D: 0.428
N8W: 0.444
F9T: 0.292
S1P: 0.411
T13S: 1.14
A3H: 0.0882
S12L: 1.12
R4H: 0.0827
N8V: 0.365
R5K: 0.0356
N8T: 1.18
G10M: 0.708
N8F: 0.269
F9W: 1.01

A few entries again (block 1):
UUUUCUGUUUGAAACAGUUUUAUACUUUCUGAUAUAGUACUUGAAAUUCUUACCAGAAAAUUACUUUGGAGUUUUGAAGCCUUUAUUAAU: -0.0708
ACCAUGCAGGUGGGCAUCUUUGGGAAGUGGGGCAAGGGGGGGAUAGGGAGGGGGGUUACACUUUGGGAACAGGUGGUCCCAGGUCGUUUC: 1.42
UCCCUGAAUCACCGACUGGAGGAGAGUUACCUACAAGAGCCUUCAUCCAGGAGCAUCCACACUGCAAUGAUAUAGGAAUGAGGUCUGAAC: -0.534
UGGGAGGUGGAUUUUGUUUAUUUUUUUAGCUCAUUUCCAGGGGUGGGAAUUUGUUUUUAAUAUGUGUCAUGAAUAAAGUUGUUUUUGAAA: -0.582
